Experimental data gathered from unrelated publications.
A part holds a random share of what one study measured. Changes are numbered by the printed parent chain.
Sequence of UniProt Q00535 (whole entry, looked up): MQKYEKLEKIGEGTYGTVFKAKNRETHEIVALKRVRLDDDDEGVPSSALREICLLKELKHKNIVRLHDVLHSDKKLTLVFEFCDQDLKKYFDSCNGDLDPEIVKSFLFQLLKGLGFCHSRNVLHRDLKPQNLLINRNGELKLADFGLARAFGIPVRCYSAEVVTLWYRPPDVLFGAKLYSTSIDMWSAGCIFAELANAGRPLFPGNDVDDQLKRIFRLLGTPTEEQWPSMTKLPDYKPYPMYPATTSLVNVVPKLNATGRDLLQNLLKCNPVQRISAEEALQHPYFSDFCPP

Study 1
Target: HLA class I histocompatibility antigen, A alpha chain, allele A*26:03 (Homo sapiens, UniProt P04439)
Observed: peptide-MHC binding
Form: peptide
Concentration: concentration not given
Molecule | binding
HEGDIVPLF | inactive
LVGGREWSY | inactive
DWSGYSGSF | inactive
VSIRGSHHK | inactive
REVFYFGKF | inactive
REVFDYLLP | inactive
SDDQLRLLK | inactive
SQIETGTPF | inactive

Study 2
Target: UBE2D2 UBC core domain (UniProt P62837)
Sequence of UniProt P62837 (whole entry, looked up): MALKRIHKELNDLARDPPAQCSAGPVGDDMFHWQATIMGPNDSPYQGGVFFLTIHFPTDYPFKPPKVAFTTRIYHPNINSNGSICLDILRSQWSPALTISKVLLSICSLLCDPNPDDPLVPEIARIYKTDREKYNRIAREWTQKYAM
Method: yeast two-hybrid
Sample: yeast
Notes: mostly zero background
Relative to: not given
Reading: higher = stronger interaction
B1: RNF130 RING domain (UniProt Q86XS8); chain DKETDPDFDHCAVCIESYKQNDVVRILPCKHVFHKSCVDPWLSEHCTCPMCKLNILKALGIV
B2: RMND5B RING domain (UniProt Q96G75); chain MKCWYHSVFACPILRQQTSDSNPPIKLICGHVISRDALNKLINGGKLKCPYCPMEQNPADGK
B3: TRIM32 RING domain (UniProt Q13049); chain NLDALREVLECPICMESFTEEQLRPKLLHCGHTICRQCLEKLLASSINGVRCPFCSKITRITSLTQ
B4: TRIM74 RING domain (UniProt Q86UV6); chain SLLELEDWLQCPICLEVFKESLMLQCGHSYCKGCLVSLSYHLDTKVRCPMCWQVVDGSSSLP
B5: TRIM34 RING domain (UniProt Q9BYJ4); chain ILLNVQEEVTCPICLELLTEPLSLDCGHSLCRACITVSNKEAVTSMGGKSSCPVCGISYSFEHLQA
B6: NHLRC1 RING domain (UniProt Q6VVB1); chain MREAEISLLECKVCFEKFGHRQQRRPRNLSCGHVVCLACVAALAHPRTLALECPFCRRACRGCDTSD
B7: RNF10 RING domain (UniProt Q8N5U6); chain VRICSHEVPSCPICLYPPTAAKITRCGHIFCWACILHYLSLSEKTWSKCPICYSSVHKKDLKS
B8: MDM2 RING domain (UniProt Q00987); chain TQDKEESVESSLPLNAIEPCVICQGRPKNGCIVHGKTGHLMACFTCAKKLKKRNKPCPVCRQPIQMIVLTYFP
Molecule | lacZ reporter activity
B1 (RNF130 RING domain) | 14600
B2 (RMND5B RING domain) | 10900
B3 (TRIM32 RING domain) | 0
B4 (TRIM74 RING domain) | 0
B5 (TRIM34 RING domain) | 0
B6 (NHLRC1 RING domain) | 0
B7 (RNF10 RING domain) | 0
B8 (MDM2 RING domain) | 0

Study 3
Target: CCND3, cyclin fold, Cln2 fusion (human)
Method: yeast growth competition, sequencing
Sample: yeast
Notes: weak parent motif
Relative to: not given
Reading: higher = stronger binding
Starting sequence: viral docking peptide; KGVKRKLFAEDSS; partner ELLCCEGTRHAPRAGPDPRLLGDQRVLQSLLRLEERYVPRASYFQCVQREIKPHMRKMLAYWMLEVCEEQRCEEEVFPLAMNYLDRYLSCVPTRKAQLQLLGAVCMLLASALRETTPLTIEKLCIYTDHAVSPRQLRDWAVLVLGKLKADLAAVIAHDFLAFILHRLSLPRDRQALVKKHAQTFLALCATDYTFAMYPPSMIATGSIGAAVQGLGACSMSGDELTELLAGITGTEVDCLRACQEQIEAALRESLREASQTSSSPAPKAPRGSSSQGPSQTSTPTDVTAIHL
Variant | normalised enrichment score
KGWKRKLFAEDSS [V3W] | -0.427
KGVKRKLFAELSS [D11L] | -0.206
KGVKRKWFAEDSS [L7W] | -0.35
KGIKRKLFAEDSS [V3I] | 0.314
KAVKRKLFAEDSS [G2A] | 0.118
KGVKRALFAEDSS [K6A] | -0.0832
KGVKRKLFDEDSS [A9D] | 0.125
KGVKRKLFQEDSS [A9Q] | -0.0144

Mixed results
Compound | target | test | conditions | measurement | value
CC(C)(C)c1cc(C=C(C#N)C#N)cc(Br)c1O | Cyclin-dependent kinase 5, with p25 (CDK5, Homo sapiens, UniProt Q00535) | enzyme activity, inhibitor | 0.5 µM | remaining activity | 98.2%
